Results collected from several papers.
Every numbered part comes from another study and shows a few of its results, in no order. Substitutions count along the parent as printed.

Block 1
Target: Interferon regulatory factor 5, full length, phosphomimetic (IRF5, Homo sapiens, UniProt Q13568-2, residues 1-514, K96S/S451D/S453D/S456D/S462D)
Method: protein-binding microarray
Molecule type: double-stranded DNA, one strand shown
Sample: in vitro
Tested at: 250 nM
Setting: 60-bp whole probe
Together with: salmon DNA 0.4 mg/ml
Relative to: random background probes
Reading: higher = stronger binding
Constant ends, left off below: GCCTAGCAC … GTCTTGATTCGCTTGACGCTGCTG
| Oligonucleotide | log fluorescence |
| --- | --- |
| CAGATGGAATTAAGAAGATGGTGCTAG | -0.172 z-score |
| TTAGGGCTCCTTTTCCTTTAGTGCTAG | -0.215 z-score |
| GACGGTTCCATTTTCCTGACGTGCTAG | 0.579 z-score |
| TCAATTATGAGTCTTGAACTGTGCTAG | 0.0697 z-score |
| TTAGATTTCAGTCGCGATTAGTGCTAG | 1.67 z-score |
| TTAGGTTTCCTTATCCGTTAGTGCTAG | 1.14 z-score |
| GACGGTTACGGTATCGGGACGTGCTAG | 0.872 z-score |
| ACCATTGTGGTTTTCATTATGTGCTAG | 1.11 z-score |
| TCAGATTTTGGTCTTTCACTGTGCTAG | 1.99 z-score |
| TCATGGTTCTGCTTCTTACTGTGCTAG | 0.0953 z-score |
| TTTTTTTTTTTTTTTTACTTGTGCTAG | 1.46 z-score |
| GACGGTATCGACTCTCGGGACGTGCTA | 1.95 z-score |
| TTAGAACTGCGGTATCGATTAGTGCTA | 3.25 z-score |
| TTAGGACTGGGACTGGCTTAGTGCTAG | -0.585 z-score |
| TCTCTTTCCAACTCTGTTTTCGTGCTA | 1.92 z-score |
| TAAGATATCGGGTTTCGATTAGTGCTA | 7.6 z-score |
| GACGGTATCCTTTTCCAGACGTGCTAG | 0.283 z-score |
| TCAATCATTGCTTTCTCACTGTGCTAG | 1.34 z-score |
| GACGAACTGAGACTGGATACGTGCTAG | -0.206 z-score |

Block 2
Target: CCNA1, cyclin fold, Cln2 fusion (human)
Method: yeast growth competition, sequencing
Sample: yeast
Setting: weak parent motif
Relative to: not given
Reading: higher = stronger binding
Starting sequence: WEE1 docking peptide (human); HKTFRKLRLFDTP
| Substitution | normalised enrichment score |
| --- | --- |
| L9M | 0.352 |
| H1D | 0.496 |
| F4V | 0.254 |
| L7S | 0.285 |
| T3A | 0.0129 |
| F10L | 0.0135 |
| L7M | -0.27 |
| R8P | 0.116 |
| H1E | 0.271 |
| L9D | 0.284 |
| K2E | 0.166 |
| K2W | 0.186 |
| F10R | 0.527 |
| L7T | 0.368 |
| D11M | 0.0566 |
| K2M | 0.0039 |
| K6E | 0.149 |
| T12L | 0.291 |
| T12V | 0.36 |
| D11W | 0.249 |
| F10I | 0.364 |

Block 3
Target: ABI1, truncated, D143A, DHFR fusion (Arabidopsis thaliana)
Method: DHFR PCA, deep sequencing
Sample: yeast
Setting: methotrexate growth selection, single substitutions
Together with: (+)-ABA 1.4 µM
Relative to: wild-type fitted maximum
Reading: higher = stronger binding
Starting sequence: PYL1, truncated, DHFR fusion (Arabidopsis thaliana); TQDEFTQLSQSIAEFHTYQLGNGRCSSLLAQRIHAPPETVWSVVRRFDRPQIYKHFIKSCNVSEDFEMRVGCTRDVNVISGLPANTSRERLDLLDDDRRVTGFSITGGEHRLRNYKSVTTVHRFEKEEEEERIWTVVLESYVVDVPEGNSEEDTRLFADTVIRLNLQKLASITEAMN
| Substitution | relative binding score |
| --- | --- |
| T39K | 53.3% |
| D97W | 3.07% |
| R88S | 43.1% |
| C72A | 76.7% |
| E109L | 6.14% |
| L82W | 28% |
| V40Y | -13.5% |
| S42N | 55.9% |
| R74S | -5.36% |
| R90W | -5.48% |
| D144Y | 7.78% |
| I79V | 67.2% |
| T120D | -10.9% |
| Q7E | 67.2% |
| F124C | 52.2% |
| L166S | 0.19% |

Block 4
Target: Histone acetyltransferase KAT6A, winged helix 2, GST fusion (KAT6A, Homo sapiens, UniProt Q92794, residues 85-181)
Method: protein binding microarray
Molecule type: double-stranded DNA, one strand shown
Sample: in vitro
Tested at: not given
Setting: 8-mer, flanks averaged, mean of 2 arrays, mostly near background
Relative to: not given
Reading: higher = stronger binding
Residues (chain): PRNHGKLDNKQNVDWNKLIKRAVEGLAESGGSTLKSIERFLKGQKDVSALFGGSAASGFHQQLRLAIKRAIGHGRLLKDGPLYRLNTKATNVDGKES
| Oligonucleotide | E-score |
| --- | --- |
| GAAAGCTC | -0.101 |
| ATAGCACC | -0.0694 |
| CAAGGGAG | 0.121 |
| TCCTCCGA | -0.0238 |
| AGCGAGGG | 0.0628 |
| TGGAAACA | -0.0767 |
| CACGCATA | -0.0622 |
| CGGTCACC | 0.102 |
| ACCACGAA | -0.00996 |
| GCAGTCGC | 0.0857 |
| GGGGCTAC | 0.105 |
| CTCACAAG | -0.0391 |
| GCGGCACA | 0.0948 |
| GACCTGGA | -0.0469 |
| AATGCAAG | 0.0745 |
| AGCTTCCG | 0.116 |
| ATTGGCAA | 0.0902 |
| GTAAAAAA | 0.141 |
| ATCGGGAA | 0.152 |
| GTAAAGGA | -0.106 |
| TCTATACA | -0.159 |
| CGAAAACG | 0.0582 |
| GAGATTGC | -0.0506 |
| ACATGAAA | 0.00959 |

Block 5
Target: CEP164, C-terminal peptide (human)
Method: DHFR complementation, deep sequencing
Sample: yeast
Setting: single substitutions, model-inferred values
Relative to: wild type
Reading: higher = weaker binding
Starting sequence: PDZK1, PDZ domain 2 (human); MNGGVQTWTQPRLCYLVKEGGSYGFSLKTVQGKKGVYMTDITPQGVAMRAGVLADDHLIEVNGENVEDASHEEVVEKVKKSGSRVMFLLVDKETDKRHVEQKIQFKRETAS; partner HNRVKVYRF
| Substitution | binding free energy change |
| --- | --- |
| A69Q | -0.117 kcal/mol |
| R84C | 0.0907 kcal/mol |
| G21W | 0.28 kcal/mol |
| T109K | -0.288 kcal/mol |
| K106T | -0.16 kcal/mol |
| R84H | 0.0988 kcal/mol |
| K80V | 0.408 kcal/mol |
| K18N | 0.321 kcal/mol |
| E60L | 0.257 kcal/mol |
| V99S | -0.133 kcal/mol |
| T94S | -0.123 kcal/mol |
| T42F | 0.441 kcal/mol |
| V90M | -0.0846 kcal/mol |
| H71L | -0.478 kcal/mol |
| G20I | 0.597 kcal/mol |
| P43T | 0.336 kcal/mol |
| E72I | 0.515 kcal/mol |
| L13S | 0.0179 kcal/mol |
| H57P | 0.389 kcal/mol |
| Q104Y | -0.12 kcal/mol |
| E19T | 0.035 kcal/mol |
| V66K | 1.38 kcal/mol |
| G3Q | -0.109 kcal/mol |

Repeated from above (block 5):
| Substitution | binding free energy change |
| --- | --- |
| R84C | 0.0907 kcal/mol |
| R84H | 0.0988 kcal/mol |
| V99S | -0.133 kcal/mol |
| E19T | 0.035 kcal/mol |
| G21W | 0.28 kcal/mol |
| K80V | 0.408 kcal/mol |
| G3Q | -0.109 kcal/mol |
| P43T | 0.336 kcal/mol |
| A69Q | -0.117 kcal/mol |
| T94S | -0.123 kcal/mol |
| Q104Y | -0.12 kcal/mol |
| E60L | 0.257 kcal/mol |
| K18N | 0.321 kcal/mol |
| K106T | -0.16 kcal/mol |
| V90M | -0.0846 kcal/mol |
